Measured values of several laboratories.
CDK17: Cyclin-dependent kinase 17 (CDK17, Homo sapiens, UniProt Q00537)
PARP1: Poly [ADP-ribose] polymerase 1 (PARP1, Homo sapiens, UniProt P09874)

The inhibition of `CC(CN(C)C)C(Oc1cccc2ccccc12)c1cccs1` (stereo not shown) is reported as ~55% (Voltage-gated potassium channel, KQT; KCNQ2(Kv7.2)/KCNQ3(Kv7.3) (KCNQ3/KCNQ2, Homo sapiens, UniProt O43525+O43526); steady-state current, perforated patch clamp; HEK293; 10 µM, -30 mV).
`C/C=C/C=C/C=C/CC/C=C/C=C/C(=O)NCC(C)C` gave an inhibition of -52% (PTGER2 (Homo sapiens, UniProt P43116); antagonist, DiscoveRX gpcrMAX; concentration not given, negative means agonist activity).
`CC(C)(C)c1cnc(CSc2cnc(NC(=O)C3CCN(CC(=O)NCCOCCOCCOCCNc4cccc5c4C(=O)N(C4CCC(=O)NC4=O)C5=O)CC3)s2)o1` (stereo not shown) has an inhibition of 18.7% (CDK17; probe labeling, KiNativ live-cell profiling; MOLT-4; 0.25 µM).
With `O=C(O)CCC(=O)N1CCN(c2ccc(Nc3ncc(C(=O)Nc4c(F)cccc4Cl)c(NCC4CCCO4)n3)cc2)CC1` (stereo not shown) the inhibition was 74.5% (Activated CDC42 kinase 1, Tyr284 phosphorylation (TNK2, Homo sapiens, UniProt Q07912); Tyr284 autophosphorylation, inhibitor, immunoblotting; LAPC4; 5 µM, 16 h, together with: EGF; negative means increased phosphorylation).
For `CN(C)C/C=C/C(=O)Nc1cccc(C(=O)Nc2ccc(Nc3nccc(-c4c(-c5ccccc5)nn5ccccc45)n3)cc2)c1`, the inhibition was 23.3% (PRKDC (Homo sapiens, UniProt P78527); ATP-biotin probe labeling, KiNativ; A-375; 1 µM, 3 h, first of two sites).
For `O=C1CCCc2ccccc2N1`, the inhibition was 2% (PARP1; enzyme activity, inhibitor; 10 µM).
The inhibition of `CC(C)(C)c1cnc(CSc2cnc(NC(=O)C3CCNCC3)s2)o1` is reported as 76.4% (CDK17; probe labeling, KiNativ live-cell profiling; MOLT-4 CRBN knockout; 0.25 µM).
The inhibition of `Cc1c(Nc2nccc3cc(CN4CC[C@@H](O)C4)cnc23)cccc1-c1cccc(-c2nc3cc(CN4CC[C@@H](C(=O)O)C4)cc(C#N)c3o2)c1C` is reported as > 50% (CD274 (Homo sapiens, UniProt Q9NZQ7); unoccupied cell-surface PD-L1; BALB/c nu/nu mice, MDA-MB-231 xenograft, tumour; 150 mg/kg single dose, 30 min).
For `Cc1ccc(-n2sc(=O)n(Cc3ccc(F)cc3)c2=O)cc1`, the inhibition was ~20% (Regulator of G-protein signaling 8 (Homo sapiens, UniProt P57771); Gα binding, irreversible inhibitor, FCPIA after washing; 20 µM, early time points, together with: Gαo).
With `CN(C)c1ccc(C(=C2C=CC(=[N+](C)C)C=C2)c2ccc(N(C)C)cc2)cc1` the inhibition was > 30% (Cell division cycle 7-related protein kinase, with DBF4 (CDC7, Homo sapiens, UniProt O00311); kinase activity, scintillation proximity; 10 µM, 1% DMSO, together with: Dbf4).
With `O=C1NCC(c2ccccc2)C(O)c2ccccc21` (racemic) the inhibition was ~3% (PARP1; enzyme activity, inhibitor, chemiluminescent; 10 µM).
For `O=C(O)CN1C(=O)c2ccc(Oc3ccc([N+](=O)[O-])cc3)cc2C1=O`, the inhibition was < 10% (LPAR3 (Homo sapiens, UniProt Q9UBY5); Ca2+ mobilization, antagonist; 10 µM, together with: LPA 200 nM).
`CC1=C(/C=C/C(C)=C/C=C/C(C)=C/C(=O)C(Cl)Cl)C(C)(C)CCC1` gave an inhibition of 70 to 96% (Retinal dehydrogenase 2 (Gallus gallus, UniProt O93344); enzyme activity, HPLC of retinoic acid; choroid cytosol (chick); 0.10 to 6 µM, 20 min preincubation, 37 °C, 4-day recovering eyes; baseline: vehicle).
For `O=C1NCC(c2ccccn2)C(=O)c2cc(Cl)c(Cl)cc21` (racemic), the inhibition was 0% (PARP1; enzyme activity, inhibitor; 10 µM).
For `CCCC1OC(=O)C1CCCCc1ccccc1` (stereo not shown), the inhibition was 97 to 100% (PLA2G6 (Homo sapiens, UniProt O60733); enzyme activity, radioactive mixed micelle; 0.091 mole fraction, diastereomer mixture).
The inhibition of `Cc1cc(NC(=O)c2cccc(NC(=O)/C=C/CN(C)C)c2)ccc1Nc1nccc(-c2cccnc2)n1` is reported as 18.1% (PIK3C3 (Homo sapiens, UniProt Q8NEB9); ATP-biotin probe labeling, KiNativ; A-375; 1 µM, 3 h, first of two sites).
`c1cnc(NCCCn2ccnc2)cn1` has an inhibition of ~100% (Fe-SOD (Leishmania braziliensis); Leishmania braziliensis; concentration not given, maximum over tested range).
For `NS(=O)(=O)c1ccc(N2N=C(c3ccc(F)cc3O)CC2c2ccc(Br)cc2)cc1` (stereo not shown), the inhibition was 25% (CA9 (Homo sapiens, UniProt Q16790); enzyme activity, inhibitor; 1 mM).
`lepirudin` gave an inhibition of > 90% (Prothrombin (F2, Homo sapiens, UniProt P00734); concentration not given).
